Experimental data gathered from unrelated publications.
Every numbered part comes from another study and shows a few of its results, in no order.

Block 1
Target: Histone acetyltransferase KAT6A, both winged helices, GST fusion (KAT6A, Homo sapiens, UniProt Q92794, residues 1-181)
Technique: protein binding microarray
Molecule type: double-stranded DNA, one strand shown
Matrix: in vitro
Tested at: not given
Setting: 8-mer, flanks averaged, mean of 2 arrays, mostly near background
Baseline: not given
Reading: higher = stronger binding
Measurement: E-score
Residues (chain): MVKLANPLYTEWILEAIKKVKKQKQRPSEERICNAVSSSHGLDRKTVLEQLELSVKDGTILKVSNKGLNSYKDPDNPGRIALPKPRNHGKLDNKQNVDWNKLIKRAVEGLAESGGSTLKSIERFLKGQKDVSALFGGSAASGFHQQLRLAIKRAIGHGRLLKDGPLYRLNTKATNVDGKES
AAATATAG: 0.107
AAAGCTGA: -0.0255
AGGGAAAA: -0.118
CTTCTTCA: -0.0204
AGGCGCGC: 0.372
CAGACGGG: 0.123
CGTGTACC: 0.058
CCGTATGC: 0.217
CATGCGAC: 0.152
CAGTTAAG: -0.121
ATCCGGTC: 0.0716
GGTAACAA: -0.0756
CACGTCTG: 0.0322
TAACTTGA: -0.153
GAGATGAA: -0.0329
TAAGTTCA: -0.136
GGAAACAC: 0.114
CCTTAATA: -0.238
ATTCGACC: -0.0853
GAAATCCC: 0.0406
ACCGAGAC: -0.0199
AGCGCCTC: 0.239
ATCTACAC: -0.119

Block 2
Target: RNA binding protein fox-1 homolog 2, RRM domain, GST-SBP tag (RBFOX2, Homo sapiens, UniProt O43251-10, residues 100-194)
Technique: RNA Bind-n-Seq
Molecule type: RNA
Matrix: in vitro
Tested at: 365 nM
Setting: natural RNA segment, single round, ends assumed
Baseline: no-protein control
Reading: higher = stronger binding
Measurement: RBNS enrichment (R)
Constant ends, left off below: GGGAGUUCUACAGUCCGACGAUC … UGGAAUUCUCGGGUGCCAA
Target sequence (chain): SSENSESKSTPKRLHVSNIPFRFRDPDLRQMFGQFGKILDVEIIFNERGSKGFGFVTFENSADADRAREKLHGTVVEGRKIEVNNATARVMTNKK
UGUCUUCUUCUGGCCCUGGGUUUAUACCAGGAAAGCCAUGCCAGAAUUACCAAAUAUGAAGUAUGAAUGUCUUACCCACGGUGAGGCUCUGCCUCCUUCUCUCUGCCUGG: 0.309
ACCCCUUCACAGACUGACAGAAUGGUUUUGUUUUGUUUUGUUUUGUUUUGUUUUGUUUUUGAGAUGGACUCUAGCUCUGUCACCCAGGCUGGAGUGCAGUGGUGCGAUCU: 1.98
UUCUGCUUAUGGUCGUGAGCUGAUCACGCAGUUUGCUAGAUGAUUUGACACUGGUGGUGAGUUCUUUUGAGGCGUGAGAUUUCUAUGUGAAACUGAUAGGUCUUGAUCUG: 0.483
AAAUUGUGGUUUUAGAAACCAACUCUUGAUAGUUGUACUGUGAUUAUAAAAAACAAUUGUUAAAUAAUAUAAUGGAAGUUUGUGAUAAUUCCUUAGCAGUAAUGUAAAAU: 1.14
AGACCUGGUACCGGGUCUGUGGUAGAGAGUAAAGACCAAGGGAGUAGAGAGAUCCCAGCCCUGGGAGGAGAAGGAAGUUGGGUCAGGCCUCGGUACAAAGGGAAAACACU: 0.809
UUGAAUAAUGUCUUCUCUUUAAUAUUCACAUAAGGCAGCCUAUUAACUGUGUCUUAGCAAUGUUGUAUAUAGUUCUUUUAAUAUUCAUAAGGUAUAUUUUUGAAUUUUGG: 1.04
AGUGGAAUUUUCUAACAAAAUAAACUUGCUCAUUUGGUCCGUUUUCUGUAACUUUUGCUAAACACUUUAUACAUUUUUAAUGUUGAAAAGCAGUGUCUCCUGCCAGAACU: 0.304
CUGAGCUCCUCCCACCCUCCUCCAGGAACCUCCACAUCUCCAAAAAUCUCCCUGUUGACUCAGUGCCUCCUCGGCUUCCUUGGAAGCCCAGAGGGACUAUGAUCUGAUGG: 0.39

Block 3
Target: PABPC1L2, full length, GST fusion (mouse, UniProt A0ABA7IW68)
Technique: RNAcompete
Molecule type: RNA
Matrix: in vitro
Tested at: 20 nM
Setting: 7-mer, probes averaged, single round
Baseline: mean of 7-mers
Reading: higher = stronger binding
Measurement: 7-mer Z-score
Construct (chain): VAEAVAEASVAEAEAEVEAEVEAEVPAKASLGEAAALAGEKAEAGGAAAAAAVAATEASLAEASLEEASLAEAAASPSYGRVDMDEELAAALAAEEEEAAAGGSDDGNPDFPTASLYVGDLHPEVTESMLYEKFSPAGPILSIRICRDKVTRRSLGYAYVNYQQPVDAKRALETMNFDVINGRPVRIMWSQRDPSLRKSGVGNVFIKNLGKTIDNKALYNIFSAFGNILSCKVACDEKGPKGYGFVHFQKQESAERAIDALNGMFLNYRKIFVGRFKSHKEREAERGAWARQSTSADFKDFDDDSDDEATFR
UUACAGA: 0.0587
AGCCGCA: -0.119
AGACCCU: -0.34
UCCUGCG: -0.289
CAGCGAG: -0.0863
UGACUAA: 0.0841
AGUACCC: -0.351
UCAAACC: -0.262
UGACUCA: -0.24
GGAGGAA: 0.492
CAUAAUU: -0.182
ACCUAGU: -0.298
UUUAACC: -0.135
ACGCAAA: 0.678
GAGAUGA: 0.0515
UUGAUGG: -0.191
UUCACUG: -0.26
GCCGUUG: -0.246
UCUAGAC: -0.0391
CGAAGUC: -0.264

Block 4
Target: Ras GTPase-activating protein-binding protein 1, C-terminal RGG region (G3BP1, Homo sapiens, UniProt Q13283)
Chain of UniProt Q13283 (whole entry, looked up): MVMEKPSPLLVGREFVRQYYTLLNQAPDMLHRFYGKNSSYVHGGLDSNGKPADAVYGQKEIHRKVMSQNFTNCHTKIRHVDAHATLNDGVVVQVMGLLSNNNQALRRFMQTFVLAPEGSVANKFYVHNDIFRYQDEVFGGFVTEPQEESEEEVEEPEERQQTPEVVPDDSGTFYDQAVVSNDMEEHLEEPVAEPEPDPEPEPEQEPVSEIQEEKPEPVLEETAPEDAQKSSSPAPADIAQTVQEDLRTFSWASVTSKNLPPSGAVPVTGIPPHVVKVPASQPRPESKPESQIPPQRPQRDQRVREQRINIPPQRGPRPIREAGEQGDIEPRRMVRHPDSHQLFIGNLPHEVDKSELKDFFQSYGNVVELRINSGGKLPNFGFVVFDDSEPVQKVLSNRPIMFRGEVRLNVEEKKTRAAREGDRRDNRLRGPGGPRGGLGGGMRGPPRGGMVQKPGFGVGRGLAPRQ
Technique: RNA Bind-n-Seq
Molecule type: RNA
Matrix: in vitro
Tested at: 1 µM
Setting: whole 134-nt RNA, ends assumed
Added: 150 mM KCl
Baseline: input library
Reading: higher = stronger binding
Measurement: log2 enrichment
Constant ends, left off below: GGGAGUUCUACAGUCCGACGAUC … UGGAAUUCUCGGGUGUCAAGG
CACAGACAACACACACCCACACAGACACAGAGGGAAGGGGUUGGGAUGGGGACAGGGUGCACAGCAGGGCGGGGUAGGACCCCAGCCCCU: -0.394
AGUCCUGUGCUACACAUCGUAUGUACCGAAUCGGGUUUUUGGGGUUUUUGGUUUUUGGAAAGUAUUAUGUUACGCCGUUCGGAUCUGCAC: -1.27
GUCCUGUGCUACACAUCGUAUGUACCGAAUCAAAUUUUUUUAAACCCAAACCCCCAAAAAAGUAUUAUGUUACGCCGUUCGGAUCUGCAC: -1.15
UCAAGUCCUGUGCUACACAUCGUAUGUACCGAAUCGGUGGAAAAAAAGGUUUGGAAAGUAUUAUGUUACGCCGUUCGGAUCUGCACUUCC: -1.43
UAUUGAUGCAUUUGACCCUACACUGGCUCCAGCCACAGGAACUCCUGUUGUCGGGGGACUAACCUAUCGAGAAGGCAUGUAUAUUGCUGA: -1.16
UCCUGUGCUACACAUCGUAUGUACCGAAUCGGGUUUUUUGGUUUUUUGGGGUUUUUUGGAAAGUAUUAUGUUACGCCGUUCGGAUCUGCA: -0.621
CCUGUGCUACACAUCGUAUGUACCGAAUCGGGUUUUUGGGAAAAAAAGGGAAAAAAAGGGAAAGUAUUAUGUUACGCCGUUCGGAUCUGC: -1.98
UUGGAAGAGACCAGUGAAAUUCGAUCUGACUUGGAGCAGUUAGACCACGAGGUUAAGGAGGCUCAGACACUGUGCGAUGAACUCUCAGUG: 0.419
ACCAUGCAGGUGGGCAUCUUUGGGAAGUGGUGCAAGGGGGGGAUAGGGAGGGGGGUAACACUUUGGGAACAGGUGGUCCCAGGUCGUUUC: -1.32

Some of these lines once more (block 2):
CUGAGCUCCUCCCACCCUCCUCCAGGAACCUCCACAUCUCCAAAAAUCUCCCUGUUGACUCAGUGCCUCCUCGGCUUCCUUGGAAGCCCAGAGGGACUAUGAUCUGAUGG: 0.39
UUGAAUAAUGUCUUCUCUUUAAUAUUCACAUAAGGCAGCCUAUUAACUGUGUCUUAGCAAUGUUGUAUAUAGUUCUUUUAAUAUUCAUAAGGUAUAUUUUUGAAUUUUGG: 1.04
UGUCUUCUUCUGGCCCUGGGUUUAUACCAGGAAAGCCAUGCCAGAAUUACCAAAUAUGAAGUAUGAAUGUCUUACCCACGGUGAGGCUCUGCCUCCUUCUCUCUGCCUGG: 0.309
AGUGGAAUUUUCUAACAAAAUAAACUUGCUCAUUUGGUCCGUUUUCUGUAACUUUUGCUAAACACUUUAUACAUUUUUAAUGUUGAAAAGCAGUGUCUCCUGCCAGAACU: 0.304
UUCUGCUUAUGGUCGUGAGCUGAUCACGCAGUUUGCUAGAUGAUUUGACACUGGUGGUGAGUUCUUUUGAGGCGUGAGAUUUCUAUGUGAAACUGAUAGGUCUUGAUCUG: 0.483
ACCCCUUCACAGACUGACAGAAUGGUUUUGUUUUGUUUUGUUUUGUUUUGUUUUGUUUUUGAGAUGGACUCUAGCUCUGUCACCCAGGCUGGAGUGCAGUGGUGCGAUCU: 1.98
AAAUUGUGGUUUUAGAAACCAACUCUUGAUAGUUGUACUGUGAUUAUAAAAAACAAUUGUUAAAUAAUAUAAUGGAAGUUUGUGAUAAUUCCUUAGCAGUAAUGUAAAAU: 1.14
AGACCUGGUACCGGGUCUGUGGUAGAGAGUAAAGACCAAGGGAGUAGAGAGAUCCCAGCCCUGGGAGGAGAAGGAAGUUGGGUCAGGCCUCGGUACAAAGGGAAAACACU: 0.809
